Published values from different studies.
A part holds a random share of what one study measured.

Set 1
Target: Ras GTPase-activating protein-binding protein 1, RRM domain (G3BP1, Homo sapiens, UniProt Q13283)
UniProt Q13283, sequence (whole entry, looked up): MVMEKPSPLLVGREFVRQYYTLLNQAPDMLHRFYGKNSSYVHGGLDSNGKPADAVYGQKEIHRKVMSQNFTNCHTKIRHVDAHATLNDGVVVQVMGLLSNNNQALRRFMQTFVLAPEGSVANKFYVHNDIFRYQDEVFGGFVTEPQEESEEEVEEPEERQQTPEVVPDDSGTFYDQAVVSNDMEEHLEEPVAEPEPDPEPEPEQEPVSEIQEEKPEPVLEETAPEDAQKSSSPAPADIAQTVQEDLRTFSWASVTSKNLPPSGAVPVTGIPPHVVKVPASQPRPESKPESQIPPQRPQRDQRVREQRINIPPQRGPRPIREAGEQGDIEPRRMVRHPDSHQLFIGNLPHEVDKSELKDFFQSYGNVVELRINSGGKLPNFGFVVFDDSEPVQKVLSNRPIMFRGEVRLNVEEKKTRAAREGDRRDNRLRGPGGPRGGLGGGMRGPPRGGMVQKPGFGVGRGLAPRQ
Technique: RNA Bind-n-Seq
Molecule type: RNA
Medium: in vitro
Concentration: 1 µM
Notes: whole 134-nt RNA, ends assumed
With: 150 mM KCl
Relative to: input library
Reading: higher = stronger binding
All sequences stand within: GGGAGUUCUACAGUCCGACGAUC … UGGAAUUCUCGGGUGUCAAGG
Strand | log2 enrichment
UGGCCCGGGUGGCAUGCGGGGAGGAAGAGGUGGCCUCAUGGAUCGUGGUGGUCCCGGUGGAAUGUUCAGAGGUGGCCGUGGUGGAGACAG | 0.531
GCAGGAAGUAAAAACAAAUGGAAAAAAUUCGGAUAGUGGCAGGGGUGGGGGUUGCUAAGGAAAGGGUGGGAUGGGAGUGGGUAAAGAGUU | 0.86
GUCCUGUGCUACACAUCGUAUGUACCGAAUCGGGGAAAGGGGUUUGGGGAAAAAGGGGAAAGUAUUAUGUUACGCCGUUCGGAUCUGCAC | 1.51
UGCCAUAAGCGGCACCGGCACUGCCCGGUUGUCGUGUCCGAGGCCACCAUCGUGGGCGUCCGCAAGACCGGGCAGAUCUGGCCCAACGAU | -0.724
CUGUGCUACACAUCGUAUGUACCGAAUCGGGGCCCCCCGGGGCCCCCCGGGGCCCCCCGGGGAAAGUAUUAUGUUACGCCGUUCGGAUCU | -0.657
CCUGUGCUACACAUCGUAUGUACCGAAUCGGGCCCCCCCGGCCCCCCCGGGCCCCCCCGGGAAAGUAUUAUGUUACGCCGUUCGGAUCUG | -0.67
AAGUCCUGUGCUACACAUCGUAUGUACCGAAUCGGCCCCGGCCCCGGGGCCCCGGGGAAAGUAUUAUGUUACGCCGUUCGGAUCUGCACU | -0.628
AAGUCCUGUGCUACACAUCGUAUGUACCGAAUCGGGGCCCCGGCCCCGGGCCCCGGAAAGUAUUAUGUUACGCCGUUCGGAUCUGCACUU | -0.929
CUCAAGUCCUGUGCUACACAUCGUAUGUACCGAAUCGGAAAGGAAAGGAAAGGGAAAGUAUUAUGUUACGCCGUUCGGAUCUGCACUUCC | -0.184

Set 2
Target: Prothrombin, mature alpha-thrombin (F2, Homo sapiens, UniProt P00734)
Technique: aptamer microarray, sandwich
Molecule type: DNA with 2'F-ANA
Medium: in vitro
Concentration: 200 nM
Notes: whole 15-mer aptamer, many near background
With: Cy3 exosite-II aptamer, 400 nM
Reading: higher = stronger binding
Strand: GGTTGGTGTGGTTGG
Modification | mean fluorescence intensity
2'F-ANA at 2 3 4 5 6 7 8 9 10 11 13 14 15 | 50.9 a.u.
2'F-ANA at 1 3 4 5 6 7 8 11 13 14 | 48.5 a.u.
2'F-ANA at 4 7 10 | 109 a.u.
2'F-ANA at 2 4 6 9 10 15 | 93.2 a.u.
2'F-ANA at 1 3 5 7 11 12 13 | 76.1 a.u.
2'F-ANA at 1 2 4 6 7 8 12 | 372 a.u.
2'F-ANA at 1 2 9 11 13 14 | 60.4 a.u.
2'F-ANA at 3 4 6 7 8 10 13 14 15 | 170 a.u.
2'F-ANA at 4 6 7 9 10 12 14 | 62.6 a.u.
2'F-ANA at 1 2 3 7 8 9 11 13 14 | 70 a.u.
2'F-ANA at 1 3 4 5 6 7 9 11 14 15 | 56.5 a.u.
2'F-ANA at 2 4 7 8 10 11 12 14 15 | 65.8 a.u.
2'F-ANA at 1 2 5 6 11 12 13 14 | 75.1 a.u.
2'F-ANA at 4 5 6 8 9 11 12 13 | 75.8 a.u.
2'F-ANA at 2 3 5 6 8 9 11 12 13 14 15 | 68.5 a.u.
2'F-ANA at 3 4 5 7 8 9 10 15 | 53.5 a.u.
2'F-ANA at 2 9 10 11 13 14 15 | 74.1 a.u.
2'F-ANA at 1 2 4 5 6 7 10 13 14 15 | 48 a.u.
2'F-ANA at 1 3 4 6 7 11 12 13 | 236 a.u.

Set 3
Target: Centromere-binding protein 1, full length, His-tagged (CBF1, Saccharomyces cerevisiae, UniProt P17106, residues 1-351)
UniProt P17106, sequence (whole entry, looked up): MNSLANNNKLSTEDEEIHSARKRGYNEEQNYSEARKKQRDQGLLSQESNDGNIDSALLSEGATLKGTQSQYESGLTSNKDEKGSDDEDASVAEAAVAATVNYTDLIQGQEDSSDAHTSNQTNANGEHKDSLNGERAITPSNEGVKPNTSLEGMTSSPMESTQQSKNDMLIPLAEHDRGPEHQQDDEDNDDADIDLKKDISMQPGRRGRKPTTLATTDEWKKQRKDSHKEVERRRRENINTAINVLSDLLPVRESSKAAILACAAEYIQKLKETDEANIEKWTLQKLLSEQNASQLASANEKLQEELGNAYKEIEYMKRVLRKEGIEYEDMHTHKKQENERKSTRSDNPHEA
Technique: competition protein-binding microarray
Molecule type: double-stranded DNA, one strand shown
Medium: in vitro
Concentration: 2 µM
Notes: whole 60-bp probe, lowest competitor level
With: Pho4 competitor, 0.05 µM
Reading: higher = stronger binding
All sequences stand within: … GTCTTGATTCGCTTGACGCTGCTG
Strand | fluorescence intensity
CATACCCAACCTTTTCACGTGGGGTAAGATATTTGT | 948 a.u.
TGCGCAACAACTTGGTAGGTGGGTGTATGTCTAGAA | 66.9 a.u.
CTATTTGAAGGCCATCACGATGGTATTTTTCAAGAA | 98.8 a.u.
CGTCCTAGTGATTGTAGCGTGGGTGCCATGAGGAAG | 84.2 a.u.
GTAGTCCTCTTTCGTCACGTCAAAATTTCAGATCCT | 87.8 a.u.
AAATTACTAAGTTGACTGGTGGGTGACGCCGTATGA | 70.7 a.u.
AACCGCAAGTATATACACGCACACACCTATCAATCA | 88.2 a.u.
CTTTCCCGATCTTGATTAGTGGGTGTAGCACATTTG | 73.2 a.u.
ATCCTTTTGAATCGGCACGTGAATATACTAAAGCTT | 1660 a.u.
CTAACGAAGGTTTGTCCTGTGGGTGACAAGCCAAGT | 69.8 a.u.
CTTCTGTAAATTTTTCACGTGCTGTGAAGCGCCCCG | 825 a.u.
ATAAGAAGTGTTTGGAACGTGCAAATCTTTCATAAC | 119 a.u.
CATCTAAAAGCATTACGCATGCCCTATAACTGGTAA | 93.4 a.u.
ATGGACACTTTAAAGCACGTTTTGCTTGAAGAGACA | 155 a.u.
GACTCACCCACTCAGGACATGATGTCAGTAGCGGGT | 56 a.u.
ATTGTCATCATCATCAGCGTGAGAAAGTCGAAACAA | 88.1 a.u.
GTAACTGTTGTATTGAACGTGGACCAGGACAAGAAA | 69.1 a.u.
TCCTGGGCGGCTTAAAACGTGAGGAAAATTGTACTG | 188 a.u.

Set 4
Target: Histone acetyltransferase KAT6A, winged helix 1, GST fusion (KAT6A, Homo sapiens, UniProt Q92794, residues 1-85)
Technique: protein binding microarray
Molecule type: double-stranded DNA, one strand shown
Medium: in vitro
Concentration: not given
Notes: 8-mer, flanks averaged, mean of 2 arrays, mostly near background
Relative to: not given
Reading: higher = stronger binding
Target sequence (chain): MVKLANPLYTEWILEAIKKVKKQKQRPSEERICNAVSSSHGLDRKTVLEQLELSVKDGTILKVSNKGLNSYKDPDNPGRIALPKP
Strand | E-score
AAATTCTG | -0.0559
GTCATAAA | -0.209
ATGATAGA | -0.04
CGATGAAA | -0.0237
GCCCAAAC | 0.0457
GGTAAGCA | -0.0646
ATGAGTGG | -0.186
TCGGGAAA | 0.167
AACCGTCG | 0.397
AACTCGTA | -0.114
AAAAGTCA | -0.145
AGCAGCTG | -0.203
AAATGGGC | -0.0909
CTTTCGCA | -0.025
ACAGTGTC | -0.00067
CATCATAC | -0.105
CCTGGACG | -0.0153
CTAAGACC | -0.101
CGGCATGC | 0.43
GTTGATCA | 0.0422

Set 5
Target: Sal-like protein 4, full length isoform B (SALL4, Homo sapiens, UniProt Q9UJQ4-2, residues 1-616)
Technique: universal PBM
Molecule type: double-stranded DNA, one strand shown
Medium: in vitro
Concentration: not given
Notes: 8-mer, flanks averaged, mean of replicates
Reading: higher = stronger binding
Residues (chain): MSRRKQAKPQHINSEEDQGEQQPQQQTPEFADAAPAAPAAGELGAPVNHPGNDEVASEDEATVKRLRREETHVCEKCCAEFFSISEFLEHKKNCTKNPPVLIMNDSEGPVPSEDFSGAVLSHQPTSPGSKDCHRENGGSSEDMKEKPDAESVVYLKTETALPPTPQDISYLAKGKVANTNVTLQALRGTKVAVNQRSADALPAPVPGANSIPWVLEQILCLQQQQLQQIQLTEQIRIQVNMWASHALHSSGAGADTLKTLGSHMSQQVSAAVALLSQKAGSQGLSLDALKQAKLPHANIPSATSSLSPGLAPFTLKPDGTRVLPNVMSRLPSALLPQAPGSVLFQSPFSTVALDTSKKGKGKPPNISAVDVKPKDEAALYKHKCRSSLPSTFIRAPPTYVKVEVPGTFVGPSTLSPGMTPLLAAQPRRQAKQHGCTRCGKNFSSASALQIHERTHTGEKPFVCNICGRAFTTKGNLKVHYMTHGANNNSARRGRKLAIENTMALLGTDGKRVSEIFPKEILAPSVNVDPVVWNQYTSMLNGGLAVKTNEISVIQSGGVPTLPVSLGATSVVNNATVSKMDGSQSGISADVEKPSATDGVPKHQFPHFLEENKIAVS
Strand | E-score
ACACAGCT | -0.097
CTTCTTAC | -0.0787
GGCTATGA | -0.0174
GAACACAC | -0.0703
ACGAGTAT | 0.134
ACGTTGCA | 0.00187
ATCTCGGG | -0.159
ACCGGACG | -0.213
TACGGTGA | 0.122
GGGAGACC | -0.351
AGGCGCTG | -0.156
TCTGACCA | 0.0946
CACATGCC | 0.0697
GTCATAAA | 0.399
AGGAATTA | 0.252
TAGCTATA | 0.279
CAGCTTTA | 0.0758
ACAGGAGG | -0.173
AGGTTCGG | -0.158
GAATGCTA | 0.108
CGGAGAGC | -0.117
ACATCGGT | -0.172
AAAATTGC | 0.311

Excerpt of the above (set 5):
Strand | E-score
ACATCGGT | -0.172
TAGCTATA | 0.279
ACACAGCT | -0.097
TACGGTGA | 0.122
ATCTCGGG | -0.159
